Measurements from different studies.
Parts stem from different laboratories: compare values within a part only.
Sequence of UniProt O75604 (whole entry, looked up): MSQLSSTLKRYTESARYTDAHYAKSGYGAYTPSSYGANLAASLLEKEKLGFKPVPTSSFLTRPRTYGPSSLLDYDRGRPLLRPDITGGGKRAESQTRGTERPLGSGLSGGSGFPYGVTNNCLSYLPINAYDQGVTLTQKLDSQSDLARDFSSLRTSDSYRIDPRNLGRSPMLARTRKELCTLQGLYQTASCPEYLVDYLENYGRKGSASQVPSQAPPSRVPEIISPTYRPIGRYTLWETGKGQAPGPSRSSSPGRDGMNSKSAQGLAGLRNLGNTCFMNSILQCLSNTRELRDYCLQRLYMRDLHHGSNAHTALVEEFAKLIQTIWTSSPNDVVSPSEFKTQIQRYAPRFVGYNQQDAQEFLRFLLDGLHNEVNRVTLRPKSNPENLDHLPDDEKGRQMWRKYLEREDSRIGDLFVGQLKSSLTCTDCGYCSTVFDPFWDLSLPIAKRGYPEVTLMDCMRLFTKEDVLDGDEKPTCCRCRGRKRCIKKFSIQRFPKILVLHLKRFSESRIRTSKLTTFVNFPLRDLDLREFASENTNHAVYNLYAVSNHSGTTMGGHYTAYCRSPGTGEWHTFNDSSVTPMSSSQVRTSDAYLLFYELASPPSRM
Sequence of UniProt P54252 (whole entry, looked up): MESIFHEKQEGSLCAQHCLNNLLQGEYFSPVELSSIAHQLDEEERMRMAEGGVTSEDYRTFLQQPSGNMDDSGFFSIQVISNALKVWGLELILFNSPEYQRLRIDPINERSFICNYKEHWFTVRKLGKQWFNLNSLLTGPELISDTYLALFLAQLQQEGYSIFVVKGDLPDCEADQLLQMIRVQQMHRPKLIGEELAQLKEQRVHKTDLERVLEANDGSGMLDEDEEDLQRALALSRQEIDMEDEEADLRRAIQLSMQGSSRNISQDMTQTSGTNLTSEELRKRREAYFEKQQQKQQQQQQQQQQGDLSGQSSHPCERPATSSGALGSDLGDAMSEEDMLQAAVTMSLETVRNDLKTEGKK
Sequence of UniProt P15374 (whole entry, looked up): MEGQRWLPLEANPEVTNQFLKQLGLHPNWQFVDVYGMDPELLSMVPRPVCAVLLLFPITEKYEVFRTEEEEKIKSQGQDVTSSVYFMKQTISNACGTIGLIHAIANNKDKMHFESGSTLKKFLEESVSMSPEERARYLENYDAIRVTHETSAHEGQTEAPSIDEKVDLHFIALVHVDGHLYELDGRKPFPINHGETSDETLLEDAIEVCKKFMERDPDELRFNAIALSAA
Sequence of UniProt Q12866 (whole entry, looked up): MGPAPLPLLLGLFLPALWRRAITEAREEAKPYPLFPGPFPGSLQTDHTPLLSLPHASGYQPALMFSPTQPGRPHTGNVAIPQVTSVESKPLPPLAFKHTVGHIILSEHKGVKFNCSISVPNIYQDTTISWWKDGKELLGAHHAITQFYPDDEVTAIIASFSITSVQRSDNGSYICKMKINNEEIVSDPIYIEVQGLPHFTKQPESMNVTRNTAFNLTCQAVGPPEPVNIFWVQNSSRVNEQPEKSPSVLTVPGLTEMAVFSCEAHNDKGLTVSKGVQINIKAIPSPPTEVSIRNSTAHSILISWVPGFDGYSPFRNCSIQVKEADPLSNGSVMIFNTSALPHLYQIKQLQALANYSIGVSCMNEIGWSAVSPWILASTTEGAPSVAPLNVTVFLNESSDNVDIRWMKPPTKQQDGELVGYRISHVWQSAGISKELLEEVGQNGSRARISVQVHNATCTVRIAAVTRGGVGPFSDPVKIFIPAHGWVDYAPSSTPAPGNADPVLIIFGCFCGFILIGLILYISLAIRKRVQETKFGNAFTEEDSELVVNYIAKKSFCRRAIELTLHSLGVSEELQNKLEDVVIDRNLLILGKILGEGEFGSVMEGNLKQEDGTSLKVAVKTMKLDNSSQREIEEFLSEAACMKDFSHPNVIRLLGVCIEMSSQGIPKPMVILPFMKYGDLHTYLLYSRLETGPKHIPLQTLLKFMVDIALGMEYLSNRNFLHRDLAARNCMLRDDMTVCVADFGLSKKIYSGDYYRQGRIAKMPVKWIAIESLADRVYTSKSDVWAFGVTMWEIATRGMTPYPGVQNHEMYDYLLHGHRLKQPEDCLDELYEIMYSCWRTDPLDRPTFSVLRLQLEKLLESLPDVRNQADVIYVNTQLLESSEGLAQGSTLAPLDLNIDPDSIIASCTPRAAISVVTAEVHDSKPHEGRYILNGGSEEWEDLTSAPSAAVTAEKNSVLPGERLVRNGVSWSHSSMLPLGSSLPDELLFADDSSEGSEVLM
Sequence of UniProt Q93009 (whole entry, looked up): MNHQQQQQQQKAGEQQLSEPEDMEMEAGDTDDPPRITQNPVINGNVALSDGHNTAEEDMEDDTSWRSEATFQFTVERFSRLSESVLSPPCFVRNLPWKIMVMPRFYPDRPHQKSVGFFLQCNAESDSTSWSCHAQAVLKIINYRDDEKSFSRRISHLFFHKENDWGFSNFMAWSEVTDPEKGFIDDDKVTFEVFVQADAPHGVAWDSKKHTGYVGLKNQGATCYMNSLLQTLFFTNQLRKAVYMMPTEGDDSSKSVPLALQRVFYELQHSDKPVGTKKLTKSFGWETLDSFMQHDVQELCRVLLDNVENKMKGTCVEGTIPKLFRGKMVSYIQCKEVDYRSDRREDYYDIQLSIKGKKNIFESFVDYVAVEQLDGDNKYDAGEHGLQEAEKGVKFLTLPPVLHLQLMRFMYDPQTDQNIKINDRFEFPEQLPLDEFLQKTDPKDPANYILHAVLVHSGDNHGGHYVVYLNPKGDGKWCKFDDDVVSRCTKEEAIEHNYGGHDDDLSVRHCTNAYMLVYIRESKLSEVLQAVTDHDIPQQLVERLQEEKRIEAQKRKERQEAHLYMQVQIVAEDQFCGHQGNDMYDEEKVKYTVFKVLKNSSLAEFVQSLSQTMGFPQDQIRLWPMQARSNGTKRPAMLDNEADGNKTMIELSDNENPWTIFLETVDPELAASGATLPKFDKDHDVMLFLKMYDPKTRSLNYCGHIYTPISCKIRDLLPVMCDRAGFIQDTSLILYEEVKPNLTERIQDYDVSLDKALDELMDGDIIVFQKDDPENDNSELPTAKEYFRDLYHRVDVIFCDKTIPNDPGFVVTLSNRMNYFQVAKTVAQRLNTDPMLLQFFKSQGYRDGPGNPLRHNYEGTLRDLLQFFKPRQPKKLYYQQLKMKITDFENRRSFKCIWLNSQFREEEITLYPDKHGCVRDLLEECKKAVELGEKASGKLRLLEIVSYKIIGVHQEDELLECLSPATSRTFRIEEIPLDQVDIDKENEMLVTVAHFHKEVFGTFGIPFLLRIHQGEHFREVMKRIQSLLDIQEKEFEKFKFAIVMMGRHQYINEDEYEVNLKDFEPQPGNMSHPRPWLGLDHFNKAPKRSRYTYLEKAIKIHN

Block 1 — effect on: peptide-MHC binding; form: peptide; tested at: concentration not given; endpoint: binding
Target: HLA class I histocompatibility antigen, A alpha chain, allele A*26:03 (Homo sapiens, UniProt P04439)
WLSVIAFGK: inactive
NQECWDSVF: inactive
YKEPNSIIL: inactive
RSLFNTIAVLY: inactive
GWPDNYCEW: inactive
QLKQRDALF: inactive
KELENEYYF: inactive
KVFFGPIYY: inactive

Block 2 — Molecule: ubiquitin aldehyde; effect on: enzyme activity; endpoint: inhibition
USP8: Ubiquitin carboxyl-terminal hydrolase 8 (USP8, Homo sapiens, UniProt P40818)
Sequence of UniProt P40818 (whole entry, looked up): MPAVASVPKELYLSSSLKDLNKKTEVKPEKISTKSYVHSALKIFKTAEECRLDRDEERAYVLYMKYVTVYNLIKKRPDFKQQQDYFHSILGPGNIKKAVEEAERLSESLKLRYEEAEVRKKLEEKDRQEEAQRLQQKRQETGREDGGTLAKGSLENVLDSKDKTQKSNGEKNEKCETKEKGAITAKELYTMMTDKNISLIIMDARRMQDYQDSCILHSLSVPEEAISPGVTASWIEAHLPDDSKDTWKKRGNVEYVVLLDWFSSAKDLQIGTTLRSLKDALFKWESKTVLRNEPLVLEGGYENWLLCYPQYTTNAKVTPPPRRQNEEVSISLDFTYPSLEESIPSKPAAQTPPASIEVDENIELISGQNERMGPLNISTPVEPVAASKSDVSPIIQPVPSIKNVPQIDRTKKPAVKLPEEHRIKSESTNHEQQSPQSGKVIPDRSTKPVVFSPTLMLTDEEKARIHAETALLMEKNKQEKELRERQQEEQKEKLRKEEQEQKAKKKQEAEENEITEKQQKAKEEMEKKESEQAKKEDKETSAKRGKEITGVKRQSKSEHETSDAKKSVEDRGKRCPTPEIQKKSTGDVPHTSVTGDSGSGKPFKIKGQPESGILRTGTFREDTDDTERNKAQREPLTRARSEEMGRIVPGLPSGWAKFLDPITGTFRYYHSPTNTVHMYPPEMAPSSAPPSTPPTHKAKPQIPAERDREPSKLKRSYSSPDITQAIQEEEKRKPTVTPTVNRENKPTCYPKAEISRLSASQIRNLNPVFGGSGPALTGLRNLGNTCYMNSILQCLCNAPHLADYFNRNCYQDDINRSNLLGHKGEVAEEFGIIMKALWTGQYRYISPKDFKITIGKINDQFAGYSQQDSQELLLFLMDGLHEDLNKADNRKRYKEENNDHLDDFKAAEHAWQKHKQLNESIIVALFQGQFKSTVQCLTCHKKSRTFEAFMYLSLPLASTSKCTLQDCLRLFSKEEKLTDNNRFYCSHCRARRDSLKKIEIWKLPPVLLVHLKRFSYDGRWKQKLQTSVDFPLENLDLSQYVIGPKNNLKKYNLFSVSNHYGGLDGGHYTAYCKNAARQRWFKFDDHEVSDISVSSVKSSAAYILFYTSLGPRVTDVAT
UCHL1: Ubiquitin carboxyl-terminal hydrolase isozyme L1 (UCHL1, Homo sapiens, UniProt P09936)
Sequence of UniProt P09936 (whole entry, looked up): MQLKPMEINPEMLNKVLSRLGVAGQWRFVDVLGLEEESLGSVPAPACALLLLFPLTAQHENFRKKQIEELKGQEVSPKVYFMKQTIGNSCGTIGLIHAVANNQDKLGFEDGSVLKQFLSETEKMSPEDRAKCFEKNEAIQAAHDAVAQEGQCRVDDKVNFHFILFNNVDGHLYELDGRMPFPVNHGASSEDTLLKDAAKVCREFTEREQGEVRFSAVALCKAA
USP8; 0.01 µM: 11%
UCHL3 (Homo sapiens, UniProt P15374); 0.0001 µM: 4%
Ataxin-3 (ATXN3, Homo sapiens, UniProt P54252); 1 µM: 67%
USP7 (Homo sapiens, UniProt Q93009); 0.001 µM: 12%
UCHL1; 0.001 µM: 7%
USP2 (Homo sapiens, UniProt O75604); 0.01 µM: 5%
UCHL1; 0.1 µM: 71%
USP8; 0.1 µM: 35%

Block 3 — target: UBE2D4 UBC core domain (UniProt Q9Y2X8); method: yeast two-hybrid; sample: yeast; setting: mostly zero background; reference: not given; reading: higher = stronger interaction; endpoint: lacZ reporter activity
B1: ARK2C RING domain (UniProt Q6ZSG1); chain EGEESDTDEKCTICLSMLEDGEDVRRLPCMHLFHQLCVDQWLAMSKKCPICRVDIETQLGAD
B2: TRIM72 RING domain (UniProt Q6ZMU5); chain APGLLHQELSCPLCLQLFDAPVTAECGHSFCRACLGRVAGEPAADGTVLCPCCQAPTRPQALST
B3: RC3H2 RING domain (UniProt Q9HBD1); chain QAAQWTEFLSCPICYNEFDENVHKPISLGCSHTVCKTCLNKLHRKACPFDQTAINTDIDVL
B4: CUL9 RING domain (UniProt Q8IWT3); chain AQAVPVRPDHCPVCVSPLGCDDDLPSLCCMHYCCKSCWNEYLTTRIEQNLVLNCTCPIADCPAQPTGAFIR
B5: IRF2BPL RING domain (UniProt Q9H1B7); chain SPMANSGPLCCTICHERLEDTHFVQCPSVPSHKFCFPCSRESIKAQGATGEVYCPSGEKCPLVGSNVP
Target sequence (chain): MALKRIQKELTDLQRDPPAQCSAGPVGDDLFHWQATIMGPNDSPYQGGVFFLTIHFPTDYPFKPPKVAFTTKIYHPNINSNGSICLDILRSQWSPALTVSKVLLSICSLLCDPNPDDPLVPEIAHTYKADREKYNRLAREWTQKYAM
B1 (ARK2C RING domain): 15000
B2 (TRIM72 RING domain): 0
QHHELTSLFECPVCFDYVLPPILQCQAGHLVCNQCRQKLSCCPTCRGALTPSIRNL (SIAH2 RING domain (UniProt O43255)): 0
B3 (RC3H2 RING domain): 0
B4 (CUL9 RING domain): 0
RLTMMWEEVTCPICLDPFVEPVSIECGHSFCQECISQVGKGGGSVCPVCRQRFLLKNLRP (TRIM21 RING domain (UniProt P19474)): 0
B5 (IRF2BPL RING domain): 0
DAIPSLSECQCGICMEILVEPVTLPCNHTLCKPCFQSTVEKASLCCPFCRRRVSSWTRYH (RNF168 RING domain (UniProt Q8IYW5)): 0

Single results of other studies
O=C1NC(=O)c2c1c1c3ccccc3n3c1c1c2c2ccccc2n1[C@H]1CC[C@@H]3O1
remaining activity (Tyrosine-protein kinase Mer (MERTK, Homo sapiens, UniProt Q12866); enzyme activity, inhibitor; 0.5 µM; reference: control): 13.6%

Repeated from above (block 1):
WLSVIAFGK: inactive
NQECWDSVF: inactive
YKEPNSIIL: inactive
RSLFNTIAVLY: inactive
